# Experimental data from different studies.
# Protocols differ between the studies behind these lines. ± marks the error that the study gave.
Compound,assay,system,setting,scale,endpoint,value
CNC1CCC(N(Cc2cccc(-c3ccncc3)c2)C(=O)c2sc3ccccc3c2Cl)CC1 (centres unmarked),,chick neural plate explants,22 h,,concentration abolishing Pax7,1 to 10 nM
CCCC[C@H](NC(=O)[C@@H](NC(=O)[C@H](CC(=O)O)NC(=O)[C@H](CCC(N)=O)NC(=O)[C@H](CC(C)C)NC(=O)[C@H](CC(C)C)NC(=O)[C@H](CCCN)NC(=O)[C@H](CCCNC(=N)N)NC(=O)[C@H](C)NC(=O)[C@H](CO)NC(=O)[C@H](CC(C)C)NC(=O)[C@H](CCC(N)=O)NC(=O)[C@H](CC)NC(=O)[C@H](CC(C)C)NC(=O)[C@@H](NC(=O)[C@H](CCCN)NC(=O)[C@H](CCCNC(=N)N)NC(=O)[C@H](Cc1ccc(O)cc1)NC(=O)[C@H](CO)NC(=O)[C@H](CCC(N)=O)NC(=O)[C@@H](NC(=O)[C@H](Cc1c(F)c(F)c(F)c(F)c1F)NC(=O)[C@@H](NC(=O)[C@H](C)NC(=O)[C@H](CC(=O)O)NC(=O)[C@@H](C)NC(=O)[C@H](Cc1ccc(O)cc1)NC)[C@@H](C)CC)[C@@H](C)O)C(C)C)[C@@H](C)CC)C(=O)N[C@@H](CC(=O)O)C(=O)N[C@@H](CCCNC(=N)N)C(=O)NC,GH release,"rat, male, serum","subcutaneous, 3 µg/kg, 15 min",baseline: reference GHRH agonist JI-38,relative potency,1.54
O=C1c2c(cc(O)c3c2oc2cc(O)c(O)cc23)OC1Cc1ccccc1 (centres unmarked),"ABTS scavenging, absorbance",,,,EC50,1060 µM
O=C(N[C@@H](Cc1ccc(OCCCCC2CCNCC2)cc1)C(=O)O)c1nc2ccccc2o1,"platelet aggregation, inhibitor, impedance aggregometry","human donors, diluted whole blood","5 min preincubation, 37 °C, added: ADP 20 µM",,IC50,0.0917 ± 0.0096 µM
CCCC[C@H](NC(=O)[C@@H](NC(=O)[C@H](CC(=O)O)NC(=O)[C@H](CCC(N)=O)NC(=O)[C@H](CC(C)C)NC(=O)[C@H](CC(C)C)NC(=O)[C@H](CCCN)NC(=O)[C@H](CCCNC(=N)N)NC(=O)[C@H](C)NC(=O)[C@H](CO)NC(=O)[C@H](CC(C)C)NC(=O)[C@H](CCC(N)=O)NC(=O)[C@H](CC)NC(=O)[C@H](CC(C)C)NC(=O)[C@@H](NC(=O)[C@H](CCCN)NC(=O)[C@H](CCCNC(=N)N)NC(=O)[C@H](Cc1ccc(O)cc1)NC(=O)[C@H](CO)NC(=O)[C@H](CC(N)=O)NC(=O)[C@@H](NC(=O)[C@H](Cc1ccccc1)NC(=O)[C@@H](NC(=O)[C@H](C)NC(=O)[C@H](CC(=O)O)NC(=O)[C@@H](CC)NC(=O)CCc1ccc(O)cc1)[C@@H](C)CC)[C@@H](C)O)C(C)C)[C@@H](C)CC)C(=O)N[C@@H](CO)C(=O)N[C@@H](CCCNC(=N)N)C(=O)NCCCC(N)=O,GH release,"male rat, serum","subcutaneous, dose not given, 15 min",baseline: GHRH(1-29)NH2,relative potency,52.6
O=C([O-])CN1CCN(CC(=O)[O-])CCN(CC(=O)NC[C@H]2CC[C@H](C(=O)N[C@H](Cc3cnc4ccccc4c3)C(=O)NCCCC[C@H](NC(=O)N[C@@H](CCC(=O)O)C(=O)O)C(=O)O)CC2)CCN(CC(=O)[O-])CC1.[64Cu+2],PET/CT imaging,"human, PSMA-positive lymph node lesions","148 MBq, 2 h post-injection",,SUVmax,7.32
CNC(=O)N(C)c1ccc(C(=O)Nc2ccc(OC)cc2C(=O)Nc2ccc(Cl)cn2)cc1,,human plasma,,,concentration doubling prothrombin time,30 ± 6 µM
COc1cc(Cn2ccc3cc(C(=O)NCC45CC6CC(CC(C6)C4)C5)ccc32)ccc1C(=O)NO,immunohistochemistry,"5xFAD mice, brain","intraperitoneal, 10 mg/kg daily, 2 months",baseline: vehicle,amyloid plaque size,decreased
CC12N3Cc4c(c(OCCCS(=O)(=O)[O-])c5ccccc5c4OCCCS(=O)(=O)[O-])CN1C(=O)N1Cc4c(c(OCCCS(=O)(=O)[O-])c5ccccc5c4OCCCS(=O)(=O)[O-])CN(C3=O)C12C.[Na+].[Na+].[Na+].[Na+] (centres unmarked),phase solubility,,added: camptothecin,,association constant,22000 M⁻¹
CCCC[C@H](NC(=O)[C@@H](NC(=O)[C@H](CC(=O)O)NC(=O)[C@H](CCC(N)=O)NC(=O)[C@H](CC(C)C)NC(=O)[C@H](CC(C)C)NC(=O)[C@H](CCCN)NC(=O)[C@H](CCCNC(=N)N)NC(=O)[C@H](C)NC(=O)[C@H](CO)NC(=O)[C@H](CC(C)C)NC(=O)[C@H](CCC(N)=O)NC(=O)[C@H](CC)NC(=O)[C@H](CC(C)C)NC(=O)[C@@H](NC(=O)[C@H](CCCN)NC(=O)[C@H](CCCNC(=N)N)NC(=O)[C@H](Cc1ccc(O)cc1)NC(=O)[C@H](CO)NC(=O)[C@H](CCC(N)=O)NC(=O)[C@@H](NC(=O)[C@H](Cc1ccccc1)NC(=O)[C@@H](NC(=O)[C@H](C)NC(=O)[C@H](CC(=O)O)NC(=O)[C@@H](C)NC(=O)CCc1ccc(O)cc1)[C@@H](C)CC)[C@@H](C)O)C(C)C)[C@@H](C)CC)C(=O)N[C@@H](CC(=O)O)C(=O)N[C@H](CCCNC(=N)N)C(=O)NC,GH release,"rat, male, serum","subcutaneous, 3 µg/kg, 15 min",baseline: reference GHRH agonist JI-38,relative potency,0.93
O=[N+]([O-])c1ccc(Cl)c(-c2nnc(S)o2)c1,"superoxide scavenging, pyrogallol",,,,IC50,48.1 ± 1.9 µM
CCCC[C@H](NC(=O)[C@@H](NC(=O)[C@H](CC(=O)O)NC(=O)[C@H](CCC(N)=O)NC(=O)[C@H](CC(C)C)NC(=O)[C@H](CC(C)C)NC(=O)[C@H](CCCN)NC(=O)[C@H](CCCNC(=N)N)NC(=O)[C@H](C)NC(=O)[C@H](CO)NC(=O)[C@H](CC(C)C)NC(=O)[C@H](CCC(N)=O)NC(=O)[C@H](CC)NC(=O)[C@H](CC(C)C)NC(=O)[C@@H](NC(=O)[C@H](CCCN)NC(=O)[C@H](CCCNC(=N)N)NC(=O)[C@H](Cc1ccc(O)cc1)NC(=O)[C@H](CO)NC(=O)[C@H](CCC(N)=O)NC(=O)[C@@H](NC(=O)[C@H](Cc1ccccc1)NC(=O)[C@@H](NC(=O)[C@H](C)NC(=O)[C@H](CC(=O)O)NC(=O)[C@H](C)NC(=O)[C@H](Cc1ccc(O)cc1)NC)[C@@H](C)CC)[C@@H](C)O)C(C)C)[C@@H](C)CC)C(=O)N[C@@H](CC(=O)O)C(=O)N[C@@H](CCCNC(=N)N)C(=O)NC,GH release,"male rat, serum","subcutaneous, dose not given, 15 min",baseline: GHRH(1-29)NH2,relative potency,170
N=C(N)NCCC[C@@H](N)C(=O)NCC(=O)N[C@H](CCC(=O)O)C(=O)N[C@H](CCCNC(=N)N)C(=O)N1CCC[C@@H]1C(=O)N1CCC[C@@H]1C(=O)N[C@H](CCCNC(=N)N)C(N)=O,Evans blue,"nude mouse U87 subcutaneous xenograft, tumour","iv, 4 µmol/kg, 30 min",baseline: PBS,Evans blue permeation increase,30.5%
CC[C@H](C)[C@H](NC(C)=O)C(=O)N[C@H]1CSCC[C@@H](C(=O)N(C)[C@H](C(N)=O)[C@@H](C)CC)NC(=O)[C@H](CCCNC(=N)N)NC(=O)[C@H](Cc2c[nH]cn2)NC(=O)[C@H](C)NC(=O)CN(C)C(=O)[C@H](Cc2c[nH]c3ccccc23)NC(=O)[C@H](CC(=O)O)NC(=O)[C@H](CCC(N)=O)NC(=O)[C@H](Cc2cn(C)c3ccccc23)NC(=O)[C@H](C(C)C)NC1=O,"classical complement activation, ELISA C3b deposition",normal human plasma,,baseline: parent disulfide-linked peptide,IC50 ratio,2
N[C@@H](CCC(=O)O)C(=O)N1CCC[C@H]1C(=O)NCC(=O)NCC(=O)O,"diketopiperazine formation, Arrhenius plot, ESI-MS",1-propanol,"70, 80, 90 °C, 0.5% acetic acid",,activation energy,17 ± 3.59 kcal/mol
C=C(c1ccc(C(=O)O)c(F)c1)c1cc2c(cc1C)C(C)(C)C=CC2(C)C,"RNA sequencing, measured: Lyve1","rat, brain","dose not given, 24 h",baseline: vehicle,log2 fold change,-0.052
CCCC[C@H](NC(=O)[C@@H](NC(=O)[C@H](CC(=O)O)NC(=O)[C@H](CCC(N)=O)NC(=O)[C@H](CC(C)C)NC(=O)[C@H](CC(C)C)NC(=O)[C@H](CCCN)NC(=O)[C@H](CCCNC(=N)N)NC(=O)[C@H](C)NC(=O)[C@H](CO)NC(=O)[C@H](CC(C)C)NC(=O)[C@H](CCC(N)=O)NC(=O)[C@H](CC)NC(=O)[C@H](CC(C)C)NC(=O)[C@@H](NC(=O)[C@H](CCCN)NC(=O)[C@H](CCCNC(=N)N)NC(=O)[C@H](Cc1ccc(O)cc1)NC(=O)[C@H](CO)NC(=O)[C@H](CCC(N)=O)NC(=O)[C@@H](NC(=O)[C@H](Cc1ccccc1)NC(=O)[C@@H](NC(=O)[C@H](C)NC(=O)[C@H](CC(=O)O)NC(=O)[C@@H](C)NC(=O)[C@H](Cc1ccc(O)cc1)NC)[C@@H](C)CC)[C@@H](C)O)C(C)C)[C@@H](C)CC)C(=O)N[C@@H](CC(=O)O)C(=O)NCCCCNC(=N)N,GH release,"rat, male, serum","subcutaneous, 3 µg/kg, 15 min",baseline: reference GHRH agonist JI-38,relative potency,1.27
COc1cc2c(cc1OC)-c1cc3ccc(OC)c(OC)c3c[n+]1CC2,,"rat, STZ-induced diabetic, serum","oral, 12 mg/kg, day 28",,total cholesterol,101 ± 4.32 mg/dL
O=C(OC(C(F)(F)F)C(F)(F)F)N1CCC(CNS(=O)(=O)c2ccc(Cl)cc2)CC1,,C57BL/6J mouse corneal kindling,"oral, 30 mg/kg, day 11",baseline: control,seizure severity,decreased
CC(=O)N[C@@H](CC(N)=O)C(=O)NCC(=O)N[C@@H](C)C(=O)N[C@@H](C)C(N)=O,1H NMR,sodium phosphate buffer 50 mM,"pH 7.8, 55 °C",,rate constant succinimide to α-Asp,2.08 h⁻¹
COC1OC(C)C(OS(=O)(=O)O)C(OC2OC(C)C(OS(=O)(=O)O)C(OC3OC(C)C(OS(=O)(=O)O)C(OC4OC(C)C(OS(=O)(=O)O)C(OC5OC(C)C(OS(=O)(=O)O)C(OC6OC(C)C(OS(=O)(=O)O)C(OC7OC(C)C(OS(=O)(=O)O)C(OC8OC(C)C(OS(=O)(=O)O)C(OS(=O)(=O)O)C8OS(=O)(=O)O)C7OS(=O)(=O)O)C6OS(=O)(=O)O)C5OS(=O)(=O)O)C4OS(=O)(=O)O)C3OS(=O)(=O)O)C2OS(=O)(=O)O)C1OS(=O)(=O)O (centres unmarked),clotting time,human plasma,,,concentration doubling APTT,13.6 µg/mL
CCOC(=O)c1cc2c(N)c(C(=O)OC)sc2nc1C,,wild-type mice,"subcutaneous, 100 mg/kg",,duration of diuretic effect,~8 h
CCCC[C@H](NC(=O)[C@@H](NC(=O)[C@H](CC(=O)O)NC(=O)[C@H](CCC(N)=O)NC(=O)[C@H](CC(C)C)NC(=O)[C@H](CC(C)C)NC(=O)[C@H](CCCN)NC(=O)[C@H](CCCNC(=N)N)NC(=O)[C@H](C)NC(=O)[C@H](CO)NC(=O)[C@H](CC(C)C)NC(=O)[C@H](CCC(N)=O)NC(=O)[C@H](CC)NC(=O)[C@H](CC(C)C)NC(=O)[C@@H](NC(=O)[C@H](CCCN)NC(=O)[C@H](CCCNC(=N)N)NC(=O)[C@H](Cc1ccc(O)cc1)NC(=O)[C@H](CO)NC(=O)[C@@H](NC(=O)[C@@H](NC(=O)[C@H](Cc1ccccc1)NC(=O)[C@@H](NC(=O)[C@H](C)NC(=O)[C@H](CC(=O)O)NC(=O)[C@@H](C)NC(=O)[C@H](Cc1ccc(O)cc1)NC)[C@@H](C)CC)[C@@H](C)O)[C@@H](C)O)C(C)C)[C@@H](C)CC)C(=O)N[C@@H](CC(=O)O)C(=O)N[C@@H](CCCNC(=N)N)C(=O)NC,GH release,"male rat, serum","subcutaneous, dose not given, 15 min",baseline: GHRH(1-29)NH2,relative potency,102
Cc1cc(O)c(C=O)c2c1C(=O)Oc1c(CO)c(O)c3c(c1O2)C(O)OC3=O (centres unmarked),,"rat, male, streptozotocin-induced diabetes, cauda epididymis","5 mg/kg, 9 weeks",,sperm viability,56.3 ± 2.34%
CC1OC(Oc2c(-c3ccc(O)cc3)oc3cc(O)cc(O)c3c2=O)C(OC(=O)C=Cc2ccc(O)cc2)C(O)C1OC(=O)C=Cc1ccc(O)cc1 (centres unmarked),flow cytometry,"mouse C57BL/6, orthotopic Hepa1-6, tumour",dose not given,baseline: vehicle,CD8 T cells,2 fold
CCNC(=O)c1noc(-c2cc(C(C)C)c(O)cc2O)c1NC(=O)CCN1CCOCC1,,"nude mice, MV4-11 xenograft","intraperitoneal, 200 mg/kg, every 2 days for 2 weeks",,complete response,22%

# Repeated from above:
Compound,assay,system,setting,scale,endpoint,value
N[C@@H](CCC(=O)O)C(=O)N1CCC[C@H]1C(=O)NCC(=O)NCC(=O)O,"diketopiperazine formation, Arrhenius plot, ESI-MS",1-propanol,"70, 80, 90 °C, 0.5% acetic acid",,activation energy,17 ± 3.59 kcal/mol
C=C(c1ccc(C(=O)O)c(F)c1)c1cc2c(cc1C)C(C)(C)C=CC2(C)C,"RNA sequencing, measured: Lyve1","rat, brain","dose not given, 24 h",baseline: vehicle,log2 fold change,-0.052
CCNC(=O)c1noc(-c2cc(C(C)C)c(O)cc2O)c1NC(=O)CCN1CCOCC1,,"nude mice, MV4-11 xenograft","intraperitoneal, 200 mg/kg, every 2 days for 2 weeks",,complete response,22%
O=C(OC(C(F)(F)F)C(F)(F)F)N1CCC(CNS(=O)(=O)c2ccc(Cl)cc2)CC1,,C57BL/6J mouse corneal kindling,"oral, 30 mg/kg, day 11",baseline: control,seizure severity,decreased
